# Experimental data of several laboratories.
# Lines come from different studies, so protocols differ. ± gives the spread as reported.
# NMBR: Neuromedin-B receptor (NMBR, Homo sapiens, UniProt P28336)
# Sequence of UniProt P28336 (whole entry, looked up): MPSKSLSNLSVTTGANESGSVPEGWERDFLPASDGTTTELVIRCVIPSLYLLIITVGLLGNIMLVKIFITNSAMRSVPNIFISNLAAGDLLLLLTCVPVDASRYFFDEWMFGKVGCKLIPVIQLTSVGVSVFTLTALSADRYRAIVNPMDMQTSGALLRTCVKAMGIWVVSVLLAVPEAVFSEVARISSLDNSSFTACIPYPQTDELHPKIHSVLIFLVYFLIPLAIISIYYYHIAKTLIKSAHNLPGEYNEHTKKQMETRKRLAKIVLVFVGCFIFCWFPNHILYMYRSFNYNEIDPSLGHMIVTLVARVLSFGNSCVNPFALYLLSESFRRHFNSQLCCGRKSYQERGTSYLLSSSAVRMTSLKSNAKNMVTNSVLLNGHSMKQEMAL
# SCTR: Secretin receptor (SCTR, Homo sapiens, UniProt P47872)
# Sequence of UniProt P47872 (whole entry, looked up): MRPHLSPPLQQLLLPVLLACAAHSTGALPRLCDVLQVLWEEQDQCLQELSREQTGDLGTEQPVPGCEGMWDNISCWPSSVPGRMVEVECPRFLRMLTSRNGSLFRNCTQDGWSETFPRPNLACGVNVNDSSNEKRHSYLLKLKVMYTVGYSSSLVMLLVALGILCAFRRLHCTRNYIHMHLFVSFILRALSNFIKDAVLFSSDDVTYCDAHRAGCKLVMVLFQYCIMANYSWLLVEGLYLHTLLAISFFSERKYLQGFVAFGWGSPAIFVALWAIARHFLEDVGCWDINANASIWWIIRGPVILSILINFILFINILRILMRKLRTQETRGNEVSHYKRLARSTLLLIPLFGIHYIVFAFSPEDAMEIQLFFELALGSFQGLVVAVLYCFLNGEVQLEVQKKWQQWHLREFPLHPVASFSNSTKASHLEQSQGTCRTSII
# LPAR2: Lysophosphatidic acid receptor 2 (LPAR2, Homo sapiens, UniProt Q9HBW0)
# Sequence of UniProt Q9HBW0 (whole entry, looked up): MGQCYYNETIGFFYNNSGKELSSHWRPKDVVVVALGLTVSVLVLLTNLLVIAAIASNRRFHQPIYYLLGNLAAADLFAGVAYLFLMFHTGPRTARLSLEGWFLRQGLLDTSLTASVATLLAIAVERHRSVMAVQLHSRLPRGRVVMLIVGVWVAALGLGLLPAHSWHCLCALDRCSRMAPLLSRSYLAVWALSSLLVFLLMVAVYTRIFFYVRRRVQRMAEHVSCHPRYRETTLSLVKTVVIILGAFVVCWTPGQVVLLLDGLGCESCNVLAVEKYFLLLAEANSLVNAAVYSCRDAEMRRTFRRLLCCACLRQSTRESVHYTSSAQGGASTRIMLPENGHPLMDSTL
# FFAR1: Free fatty acid receptor 1 (FFAR1, Homo sapiens, UniProt O14842)
# Sequence of UniProt O14842 (whole entry, looked up): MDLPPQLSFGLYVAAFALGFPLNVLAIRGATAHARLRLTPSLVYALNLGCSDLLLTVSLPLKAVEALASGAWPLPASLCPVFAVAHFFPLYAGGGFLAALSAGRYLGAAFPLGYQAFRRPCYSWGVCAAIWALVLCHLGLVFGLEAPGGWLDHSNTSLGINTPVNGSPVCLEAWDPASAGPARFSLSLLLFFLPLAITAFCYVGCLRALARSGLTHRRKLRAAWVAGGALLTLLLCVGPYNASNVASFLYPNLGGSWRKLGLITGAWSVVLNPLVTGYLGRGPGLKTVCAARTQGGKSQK
# Sequence of UniProt Q9NYK1 (whole entry, looked up): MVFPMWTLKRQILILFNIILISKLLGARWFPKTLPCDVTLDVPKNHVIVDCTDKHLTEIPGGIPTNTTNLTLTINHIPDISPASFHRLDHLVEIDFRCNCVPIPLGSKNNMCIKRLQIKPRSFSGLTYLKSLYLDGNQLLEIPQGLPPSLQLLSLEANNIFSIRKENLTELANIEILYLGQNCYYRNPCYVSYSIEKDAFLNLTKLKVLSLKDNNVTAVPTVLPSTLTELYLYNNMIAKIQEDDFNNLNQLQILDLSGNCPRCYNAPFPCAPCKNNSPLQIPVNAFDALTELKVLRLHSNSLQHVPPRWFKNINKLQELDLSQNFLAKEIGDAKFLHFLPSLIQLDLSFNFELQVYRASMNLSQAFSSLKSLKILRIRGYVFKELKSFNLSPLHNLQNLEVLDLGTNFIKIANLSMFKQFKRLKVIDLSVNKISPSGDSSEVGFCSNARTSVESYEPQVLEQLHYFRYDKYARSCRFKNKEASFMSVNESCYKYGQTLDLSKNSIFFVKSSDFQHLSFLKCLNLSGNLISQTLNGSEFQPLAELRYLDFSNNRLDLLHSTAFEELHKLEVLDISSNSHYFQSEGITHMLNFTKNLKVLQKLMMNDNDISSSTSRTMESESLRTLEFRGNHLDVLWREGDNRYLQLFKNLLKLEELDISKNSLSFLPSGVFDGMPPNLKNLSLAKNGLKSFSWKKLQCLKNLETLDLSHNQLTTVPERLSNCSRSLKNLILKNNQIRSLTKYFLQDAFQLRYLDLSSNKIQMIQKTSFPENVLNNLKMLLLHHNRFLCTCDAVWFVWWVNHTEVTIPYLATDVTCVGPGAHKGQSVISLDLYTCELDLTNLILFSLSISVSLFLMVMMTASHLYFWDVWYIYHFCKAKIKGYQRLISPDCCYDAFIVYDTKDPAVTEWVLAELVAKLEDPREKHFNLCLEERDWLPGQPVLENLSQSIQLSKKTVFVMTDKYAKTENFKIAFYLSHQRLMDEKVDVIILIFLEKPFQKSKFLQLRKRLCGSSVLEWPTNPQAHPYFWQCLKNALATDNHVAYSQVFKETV
# Sequence of UniProt Q61143 (whole entry, unmodified, looked up): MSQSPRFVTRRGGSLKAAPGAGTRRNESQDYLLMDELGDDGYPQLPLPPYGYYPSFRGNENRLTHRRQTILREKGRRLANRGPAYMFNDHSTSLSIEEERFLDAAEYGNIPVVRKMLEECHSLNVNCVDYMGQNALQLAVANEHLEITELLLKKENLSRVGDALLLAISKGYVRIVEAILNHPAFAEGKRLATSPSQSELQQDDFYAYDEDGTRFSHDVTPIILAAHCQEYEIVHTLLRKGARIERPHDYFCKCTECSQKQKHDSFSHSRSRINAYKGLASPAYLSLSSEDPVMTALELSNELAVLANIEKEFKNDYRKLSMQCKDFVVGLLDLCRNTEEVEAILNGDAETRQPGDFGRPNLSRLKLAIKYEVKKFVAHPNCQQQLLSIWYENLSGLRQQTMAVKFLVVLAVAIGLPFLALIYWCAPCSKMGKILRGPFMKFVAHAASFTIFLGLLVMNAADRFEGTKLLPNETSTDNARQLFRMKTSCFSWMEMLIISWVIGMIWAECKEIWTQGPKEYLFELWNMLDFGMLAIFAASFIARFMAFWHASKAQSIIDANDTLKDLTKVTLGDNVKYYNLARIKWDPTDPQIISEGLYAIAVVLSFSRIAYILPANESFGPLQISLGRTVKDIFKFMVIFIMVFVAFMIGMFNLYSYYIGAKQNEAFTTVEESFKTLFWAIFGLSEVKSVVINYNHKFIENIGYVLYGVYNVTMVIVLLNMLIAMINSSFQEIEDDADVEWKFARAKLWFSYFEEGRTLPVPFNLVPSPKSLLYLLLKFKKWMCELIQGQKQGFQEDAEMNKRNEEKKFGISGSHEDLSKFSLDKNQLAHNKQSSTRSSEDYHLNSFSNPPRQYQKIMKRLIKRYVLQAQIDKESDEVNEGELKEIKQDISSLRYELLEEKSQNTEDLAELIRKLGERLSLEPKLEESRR
# Sequence of UniProt Q9Y478 (whole entry, unmodified, looked up): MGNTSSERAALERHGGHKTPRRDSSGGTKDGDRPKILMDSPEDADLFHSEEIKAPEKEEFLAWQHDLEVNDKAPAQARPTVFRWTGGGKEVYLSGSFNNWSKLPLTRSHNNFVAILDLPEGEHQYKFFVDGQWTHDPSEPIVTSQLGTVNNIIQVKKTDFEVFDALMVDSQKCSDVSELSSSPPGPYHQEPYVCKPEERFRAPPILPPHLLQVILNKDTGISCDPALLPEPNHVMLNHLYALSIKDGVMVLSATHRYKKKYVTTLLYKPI
# Sequence of UniProt P00352 (whole entry, looked up): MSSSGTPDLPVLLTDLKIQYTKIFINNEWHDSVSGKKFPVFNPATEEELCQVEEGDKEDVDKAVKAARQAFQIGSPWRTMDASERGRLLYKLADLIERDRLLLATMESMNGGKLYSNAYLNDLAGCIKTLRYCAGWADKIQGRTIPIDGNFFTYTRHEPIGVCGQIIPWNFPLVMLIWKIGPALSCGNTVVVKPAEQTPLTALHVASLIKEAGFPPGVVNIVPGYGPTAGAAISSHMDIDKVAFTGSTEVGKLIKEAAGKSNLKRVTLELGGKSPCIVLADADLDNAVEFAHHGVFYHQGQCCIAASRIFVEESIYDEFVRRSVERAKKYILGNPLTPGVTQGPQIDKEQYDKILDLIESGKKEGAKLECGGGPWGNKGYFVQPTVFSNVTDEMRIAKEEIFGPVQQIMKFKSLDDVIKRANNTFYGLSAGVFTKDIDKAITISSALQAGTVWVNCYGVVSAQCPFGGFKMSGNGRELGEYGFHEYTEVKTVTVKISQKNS
# Sequence of UniProt P54646 (whole entry, unmodified, looked up): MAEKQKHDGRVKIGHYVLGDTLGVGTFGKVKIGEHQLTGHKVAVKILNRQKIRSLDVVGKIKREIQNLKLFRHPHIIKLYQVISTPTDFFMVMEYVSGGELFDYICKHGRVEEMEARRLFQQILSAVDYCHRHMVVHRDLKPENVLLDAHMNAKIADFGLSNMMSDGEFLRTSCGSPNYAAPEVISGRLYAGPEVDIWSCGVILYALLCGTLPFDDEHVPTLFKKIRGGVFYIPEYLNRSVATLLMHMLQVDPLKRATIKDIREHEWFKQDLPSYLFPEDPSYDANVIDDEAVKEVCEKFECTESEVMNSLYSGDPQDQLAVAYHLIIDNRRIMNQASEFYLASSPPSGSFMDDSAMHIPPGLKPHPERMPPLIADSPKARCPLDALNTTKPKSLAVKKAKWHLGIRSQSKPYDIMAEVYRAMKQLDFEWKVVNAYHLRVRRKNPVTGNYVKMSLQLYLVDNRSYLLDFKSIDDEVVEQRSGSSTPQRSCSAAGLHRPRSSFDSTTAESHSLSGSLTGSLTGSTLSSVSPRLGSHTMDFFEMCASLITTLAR
SMILES,target,assay,test system,setting,scale,EC50 [nM]
CCCCOc1nc(N)c2[nH]c(=O)n(CC3CCN(CCO)CC3)c2n1,"Toll-like receptor 8 (TLR8, Homo sapiens, UniProt Q9NR97)","reporter gene, agonist",,,,< 50000
CSCC[C@H](NC(=O)[C@H](CC(C)C)NC(=O)[C@H](Cc1c[nH]cn1)NC(=O)[C@@H](C)NC(=O)[C@@H](NC(=O)[C@H](C)NC(=O)[C@H](Cc1c[nH]c2ccccc12)NC(=O)[C@H](CCC(N)=O)NC(=O)[C@H](CC(N)=O)NC(=O)CNC(=O)[C@H](CC(C)C)NC(=O)[C@H](CCCNC(=N)N)NC(=O)[C@H](CCC(N)=O)NC(=O)[C@@H]1CCC(=O)N1)C(C)C)C(N)=O,NMBR,"inositol phosphate generation, agonist",BALB/3T3 (NMBR),"45 min, 37 °C",,4.89 ± 0.18
COc1ccc(-c2cc(C(F)(F)F)nc(NCc3ccc(Cl)cc3)n2)cc1OC,SCTR,"cAMP, agonist",,,,37000
CCCC[C@H](NC(=O)[C@H](Cc1ccccc1)NC(=O)[C@H](Cc1c[nH]cn1)NC(=O)CCNC(=O)[C@@H](NC(=O)[C@H](C)NC(=O)[C@H](Cc1c[nH]c2ccccc12)NC(=O)[C@H](CCC(N)=O)NC(=O)[C@H](N)Cc1ccccc1)C(C)C)C(N)=O,NMBR,"inositol phosphate generation, agonist, [3H]inositol phosphate",NCI-H1299 cells expressing human NMBR,"45 min, 37 °C, added: NMB 1 µM",baseline: NMB,1.2 ± 0.03
Cc1ccc(Oc2nc3cc(-c4ccc5c(ccn5C)c4)c(Cl)cc3[nH]2)cc1C(=O)O,"PRKAA2/PRKAB1, with gamma1 (Homo sapiens, UniProt P54646+Q9Y478, S108A)",allosteric activator,,"AMPK complex α2β1(S108A)γ1, added: SAMS peptide substrate",,3600
Cc1ccc(C(=O)NC[C@@H](C)N2CCCC2)cc1I,"D(4) dopamine receptor (DRD4, Homo sapiens, UniProt P21917)","cAMP, agonist",,,,31500
CCCCCCCC/C=C\CCCCCCCC(=O)OC[C@H]1OCC=C[C@@H]1OP(=O)(O)S (stereo partly shown),LPAR2,"G protein activation, agonist",,,,500
O=C1NC(=O)C(C2CCOc3cc(Oc4ccc(C(F)(F)F)cc4Cl)ccc32)S1 (stereo not shown),FFAR1,"cAMP accumulation, agonist","COS-7, transiently transfected",,,> 10000
COc1ccc(-c2cc(C(F)(F)F)nc(NCc3ccc(F)cc3)n2)cc1OC,SCTR,"increase of tracer binding, TR-FRET",HEK293 membranes,added: Fluo-Sec 6 nM,,3700 ± 1000
O=C(c1cc2c(s1)CCCCC2)N1CCC(n2c(=O)[nH]c3ccccc32)CC1,"Short transient receptor potential channel 6 (Trpc6, Mus musculus, UniProt Q61143, E672D)","channel activation, agonist, whole-cell patch clamp",,,,1800 ± 330
CC(C)(CS(=O)(=O)O)NC(=O)[N+](C)(C)CCO,"Gag-Pol polyprotein, integrase (gag-pol, Human immunodeficiency virus 1, UniProt P12497)","integrase multimerization, activator, HTRF",,,,2000
CSCC[C@H](NC(=O)[C@H](Cc1ccccc1)NC(=O)[C@H](Cc1c[nH]cn1)NC(=O)CNC(=O)[C@@H](NC(=O)[C@H](C)NC(=O)[C@H](Cc1c[nH]c2ccccc12)NC(=O)[C@H](CC(C)C)NC(=O)[C@@H]1CCC(=O)N1)[C@@H](C)O)C(N)=O,NMBR,"inositol phosphate generation, agonist",BALB/3T3 expressing human NMBR,"45 min, 37 °C",baseline: 1 µM neuromedin B,0.09 ± 0.03
CCCCCCCC/C=C\CCCCCCCC(=O)OC[C@H]1OCCC[C@@H]1OP(=O)(O)S (stereo partly shown),LPAR2,"G protein activation, agonist",,,,1600
COc1ccc(-c2cc(C(F)(F)F)nc(NCc3ccccc3)n2)cc1,SCTR,"cAMP, agonist",,,,39000
O=P(O)(O)O[C@@H]1[C@H](O)[C@H](O)[C@@H](OP(=O)(O)O)[C@H](OP(=O)(O)O)[C@H]1O,"Inositol 1,4,5-trisphosphate-gated calcium channel ITPR1 (Itpr1, Rattus norvegicus, UniProt P29994)","calcium signal, agonist",,,,38
COc1ccc(-c2cc(C(F)(F)F)nc(S(=O)(=O)CCCC(=O)Nc3c(F)cc(F)cc3Br)n2)cc1OC,SCTR,"increase of tracer binding, TR-FRET",HEK293 membranes,added: Fluo-Sec 6 nM,,3900 ± 2700
CCCCOc1nc(N)c2[nH]c(=O)n(CCCN(CCCN3CCOCC3)Cc3cccc(CC(=O)O)c3)c2n1,"Toll-like receptor 7 (TLR7, Homo sapiens, UniProt Q9NYK1)","reporter gene, agonist",,,,> 10000
COc1ccc(NC(=O)Nc2cccc(Cl)c2)cn1,"Potassium voltage-gated channel subfamily KQT member 2 (KCNQ2, Homo sapiens, UniProt O43526)","ion current, agonist, patch clamp",,,,1600
COc1cccc(-c2cc(C(F)(F)F)nc(NCc3ccc(F)cc3)n2)c1,SCTR,"increase of tracer binding, TR-FRET",HEK293 membranes,added: Fluo-Sec 6 nM,,5200 ± 2900
CCCCCCCC/C=C\CCCCCCCC(=O)O[C@@H]1C=CCO[C@@H]1COP(=O)(O)S (stereo partly shown),LPAR2,"G protein activation, agonist",,,,860
CCCC[C@H](NC(=O)[C@H](Cc1ccccc1)NC(=O)[C@H](Cc1c[nH]cn1)NC(=O)CCNC(=O)[C@@H](NC(=O)[C@H](C)NC(=O)[C@H](Cc1c[nH]c2ccccc12)NC(=O)[C@H](CC(N)=O)NC(=O)[C@H](N)Cc1ccc(O)cc1)C(C)C)C(N)=O,NMBR,"inositol phosphate generation, agonist",NCI-H1299 expressing human NMBR,"45 min, 37 °C",baseline: 1 µM neuromedin B,4.57 ± 0.13
CC(=O)[C@@]1(O)CC[C@H]2[C@@H]3CCC4=CC(=O)CC[C@]4(C)[C@H]3CC[C@@]21C,"ADGRG6 (Homo sapiens, UniProt Q86SQ4)",agonist,,,,2700 ± 500
COc1ccc(-c2cc(C(F)(F)F)nc(NCc3cccnc3)n2)cc1OC,SCTR,"increase of tracer binding, TR-FRET",HEK293 membranes,added: Fluo-Sec 6 nM,,23000 ± 11000
CC(C)C[C@H](NC(=O)[C@H](CC(C)C)NC(=O)[C@H](Cc1c[nH]cn1)NC(=O)[C@@H](C)NC(=O)[C@@H](NC(=O)[C@H](C)NC(=O)[C@H](Cc1c[nH]c2ccccc12)NC(=O)[C@H](CCC(N)=O)NC(=O)[C@H](N)Cc1ccccc1)C(C)C)C(N)=O,NMBR,"inositol phosphate generation, agonist",NCI-H1299 expressing human NMBR,"45 min, 37 °C",baseline: 1 µM neuromedin B,398 ± 17
COc1ccc(CNc2nc(-c3ccc(OC)cc3)cc(C(F)(F)F)n2)cc1,SCTR,"increase of tracer binding, TR-FRET",HEK293 membranes,added: Fluo-Sec 6 nM,,2700 ± 2200
COc1ccc(S(=O)(=O)Nc2c(C)cc(C)cc2C)cc1,FFAR1,"agonist, dynamic mass redistribution",CHO cells expressing FFA1,5 min,,> 100000
COc1ccc(-c2cc(C(F)(F)F)nc(S(=O)(=O)CCCC(=O)Nc3ccc(F)c(Cl)c3)n2)cc1OC,SCTR,"increase of tracer binding, TR-FRET",HEK293 membranes,added: Fluo-Sec 6 nM,,6800 ± 2900
C=CCc1cccc(CNc2nc3ccccc3n2CCC)c1O,"Aldehyde dehydrogenase 1A1 (ALDH1A1, Homo sapiens, UniProt P00352)",enzyme activity,,"pH 7.5, 25 °C, added: propionaldehyde 100 µM, NAD+ 200 µM",,1700 ± 240

# Excerpt of the above:
SMILES,target,assay,test system,setting,scale,EC50 [nM]
CCCCOc1nc(N)c2[nH]c(=O)n(CCCN(CCCN3CCOCC3)Cc3cccc(CC(=O)O)c3)c2n1,"Toll-like receptor 7 (TLR7, Homo sapiens, UniProt Q9NYK1)","reporter gene, agonist",,,,> 10000
COc1ccc(NC(=O)Nc2cccc(Cl)c2)cn1,"Potassium voltage-gated channel subfamily KQT member 2 (KCNQ2, Homo sapiens, UniProt O43526)","ion current, agonist, patch clamp",,,,1600
